Measured values gathered from unrelated publications.
Protocols differ between the studies behind these lines. Numbers after ± are the reported error. Values after ≈ are worked out from the molar mass of the structure shown. Ends that are not written are not given here.
Organism: Escherichia coli

Molecule | test | test system | conditions | scale | endpoint | value
CC[C@H]1OC(=O)[C@H](C)[C@@H](O[C@H]2C[C@@](C)(OC)[C@@H](O)[C@H](C)O2)[C@H](C)[C@@H](O[C@@H]2O[C@H](C)C[C@H](N(C)C)[C@H]2O)[C@](C)(OC)C[C@@H](C)C(=O)[C@H](C)[C@@H](O)[C@]1(C)O | in vitro translation, SNAPf fluorescence | E. coli MRE600 70S ribosomes | 2 h, 37 °C |  | IC50 | 14 ± 14 nM
GWGSFFKKAAHVGKHVGKAALTHYL-NH2 (C-amide) | bacterial growth, broth microdilution | peptide, NCTC 9001, Mueller-Hinton broth | overnight, 37 °C |  | MIC50 | 0.66 ± 0.22 µg/mL
COc1ccc(C(=O)NN=Cc2ccc(O)c3ncccc23)cc1 | bacterial growth | NEB 5-alpha, cation-supplemented liquid medium |  |  | EC50 | > 100000 nM
CCC(=O)O[C@H]1[C@H](C)O[C@@H](O[C@H]2[C@H](N(C)C)[C@@H](O)[C@H](O[C@H]3[C@@H](CC=O)C[C@@H](C)[C@@H](O)/C=C/C=C/C[C@@H](C)OC(=O)C[C@@H](O)[C@@H]3OC)O[C@@H]2C)C[C@@]1(C)O | growth | SG 458, DMSO–methanol | 50 µL of 2.0 mM, 24 h, 37 °C |  | inhibition zone diameter | 19 mm
CCN1CCN(C(=O)N[C@@H](C(=O)N[C@@H]2C(=O)N3[C@@H]2SC(C)(C)[C@@H]3C(=O)O)c2ccccc2)C(=O)C1=O | checkerboard | ATCC 25922 | with: magainin II |  | FIC index | 0.312
TRSSRAGLQWPVGRVHRLLRK-NH2 (C-amide) | bacterial growth, broth microdilution | peptide, TOP10, Mueller-Hinton broth | overnight, 37 °C |  | MIC50 | > 25.9 µg/mL
KFFKFFKFFK (peptide-PNA conjugate) |  | peptide, UPEC 536 | 2.5 µM, 60 to 120 min |  | reduction in viable count | 1 to 2 log cfu/mL
GIGKFLHSAKKFGKAFVGEIMNS-NH2 (C-amide) | bacterial growth, broth microdilution | peptide, NCTC 9001, Mueller-Hinton broth | overnight, 37 °C |  | MIC50 | 6.86 ± 1.58 µg/mL
CC[C@H](C)[C@H](NC(=O)[C@H](C)NC(=O)[C@@H]1CCCN1C(=O)[C@H](CCCCN)NC(=O)[C@@H](NC(=O)[C@H](Cc1c[nH]c2ccccc12)NC(=O)CNC(=O)[C@H](CCC(N)=O)NC(=O)[C@@H](NC(=O)[C@H](CC(N)=O)NC(=O)[C@H](CC(=O)O)NC(=O)[C@H](CCCNC(=N)N)NC(=O)[C@H](CC(C)C)NC(=O)[C@@H](NC(=O)[C@@H](N)CCCCN)C(C)C)[C@@H](C)CC)[C@@H](C)O)C(=O)N[C@@H](CCCNC(=N)N)C(=O)N[C@@H](CCCNC(=N)N)C(=O)N[C@@H](CC(C)C)C(=O)N[C@@H](C)C(=O)N[C@@H](CCCNC(=N)N)C(=O)N[C@@H](CCCNC(=N)N)C(=O)NCC(=O)O | membrane permeabilization, propidium iodide uptake |  | 2 µM, 5 min, pH 7.4 | baseline: before addition | fluorescence ratio | 1.13 ± 0.08
C[C@H]1c2cccc(O)c2C(=O)C2=C(O)[C@]3(O)C(=O)C(C(N)=O)=C(O)[C@@H](N(C)C)[C@@H]3[C@@H](O)[C@@H]21 | checkerboard | ATCC 25922 | with: magainin II |  | FIC index | 1.5
CC1(C)S[C@@H]2[C@H](NC(=O)[C@H](N)c3ccc(O)cc3)C(=O)N2[C@H]1C(=O)O |  | hospitalized pneumonia patients, clinical isolates | Fine score 70 or more |  | susceptible isolates | 50%
O=CN(O)CCCP(=O)(O)O |  | BL21(DE3) |  | baseline: E. coli growth over P. falciparum IC50 | selectivity ratio | 14 fold
CO/N=C(\C(=O)N[C@@H]1C(=O)N2C(C(=O)O)=C(CSc3nc(=O)c(=O)[nH]n3C)CS[C@H]12)c1csc(N)n1 | checkerboard | ATCC 25922 | with: magainin II |  | FIC index | 0.25
GSSFLSPEHQRVQQRKESKKPPAKLQPR (ghrelin; ends and bridges not checked; sequence looked up) | bacterial killing | peptide, ATCC 27325, sodium phosphate buffer | 2 h, pH 6.8, 37 °C | baseline: untreated | bactericidal concentration | ≥ 12.5 µg/mL
C[C@@H](O)[C@H]1C(=O)N2C(C(=O)O)=C(S[C@@H]3CN[C@H](C(=O)N(C)C)C3)[C@H](C)[C@H]12 | checkerboard | ATCC 25922 | with: magainin II |  | FIC index | 0.312
COc1cc(C=Nc2cccc(O)c2)ccc1O | microbial growth, disc diffusion |  | 2000 µg/mL, 24 h |  | inhibition zone | ≤ 16.6 mm
CC[C@H](C)[C@H](NC(=O)CNC(=O)[C@H](CCC(=O)O)NC(=O)[C@H](CO)NC(=O)[C@@H](NC(=O)[C@H](CCCNC(=N)N)NC(=O)[C@H](CCCCN)NC(=O)[C@H](CCCCN)NC(=O)[C@H](C)NC(=O)[C@H](CO)NC(=O)[C@H](CC(N)=O)NC(=O)[C@H](CCC(=O)O)NC(=O)[C@H](CC(C)C)NC(=O)[C@H](CCCCN)NC(=O)[C@H](CCCCN)NC(=O)[C@H](C)NC(=O)[C@@H](NC(=O)[C@H](CCCCN)NC(=O)[C@H](CO)NC(=O)[C@H](CC(C)C)NC(=O)[C@H](Cc1c[nH]c2ccccc12)NC(=O)[C@@H](N)CO)[C@@H](C)O)[C@@H](C)CC)C(=O)N[C@@H](C)C(=O)N[C@H](C(=O)N[C@@H](C)C(=O)N[C@H](C(=O)N[C@@H](CCC(N)=O)C(=O)NCC(=O)NCC(=O)N1CCC[C@H]1C(=O)N[C@@H](CCCNC(=N)N)C(=O)O)[C@@H](C)CC)[C@@H](C)CC | broth microdilution |  | 18 h, 30 clinical isolates |  | MIC50 | 0.5 µg/mL (≈ 0.15 µM)
COc1cc(C=Nc2ccccc2Br)ccc1O | microbial growth, disc diffusion |  | 2000 µg/mL, 24 h |  | inhibition zone | ≤ 16.6 mm
